Measurements gathered from unrelated publications.
Several values in a cell are separate wells, animals, samples, runs or records. ± marks the error that the study gave.
Genome polyprotein NS2B-NS3 protease: Genome polyprotein, NS2B-NS3 protease (dengue virus type 2, UniProt P29990)
CNR2: Cannabinoid receptor 2 (CNR2, Homo sapiens, UniProt P34972)
Chain of UniProt P34972 (whole entry, looked up): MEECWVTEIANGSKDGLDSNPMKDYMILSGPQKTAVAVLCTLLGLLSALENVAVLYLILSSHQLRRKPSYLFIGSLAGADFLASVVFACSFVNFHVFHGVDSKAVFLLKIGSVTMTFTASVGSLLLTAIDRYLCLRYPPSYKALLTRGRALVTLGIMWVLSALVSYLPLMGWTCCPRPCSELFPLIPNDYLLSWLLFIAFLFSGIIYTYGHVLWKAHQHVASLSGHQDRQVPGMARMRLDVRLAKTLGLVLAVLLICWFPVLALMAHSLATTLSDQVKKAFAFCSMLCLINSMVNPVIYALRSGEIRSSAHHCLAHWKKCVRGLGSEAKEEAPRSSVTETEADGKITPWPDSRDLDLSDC
Chain of UniProt Q9SZU7 (whole entry, unmodified, looked up): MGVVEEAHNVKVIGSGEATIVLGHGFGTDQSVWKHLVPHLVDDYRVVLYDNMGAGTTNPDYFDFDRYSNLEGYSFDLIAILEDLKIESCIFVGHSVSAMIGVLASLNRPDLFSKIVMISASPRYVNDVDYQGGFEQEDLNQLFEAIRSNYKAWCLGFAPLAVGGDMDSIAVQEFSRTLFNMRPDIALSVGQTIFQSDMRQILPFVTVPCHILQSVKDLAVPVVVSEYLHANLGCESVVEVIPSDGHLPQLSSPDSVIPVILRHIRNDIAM
Chain of UniProt P46089 (whole entry, unmodified, looked up): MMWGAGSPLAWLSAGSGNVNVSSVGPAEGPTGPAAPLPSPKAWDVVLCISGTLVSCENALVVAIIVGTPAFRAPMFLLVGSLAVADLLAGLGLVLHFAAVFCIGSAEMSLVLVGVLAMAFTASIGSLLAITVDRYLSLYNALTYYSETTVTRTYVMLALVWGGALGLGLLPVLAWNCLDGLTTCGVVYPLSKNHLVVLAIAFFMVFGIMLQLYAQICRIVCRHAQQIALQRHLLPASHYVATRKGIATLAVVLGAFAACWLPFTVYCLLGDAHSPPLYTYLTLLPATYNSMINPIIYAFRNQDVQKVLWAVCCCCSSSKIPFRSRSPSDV
Chain of UniProt P54764 (whole entry, looked up): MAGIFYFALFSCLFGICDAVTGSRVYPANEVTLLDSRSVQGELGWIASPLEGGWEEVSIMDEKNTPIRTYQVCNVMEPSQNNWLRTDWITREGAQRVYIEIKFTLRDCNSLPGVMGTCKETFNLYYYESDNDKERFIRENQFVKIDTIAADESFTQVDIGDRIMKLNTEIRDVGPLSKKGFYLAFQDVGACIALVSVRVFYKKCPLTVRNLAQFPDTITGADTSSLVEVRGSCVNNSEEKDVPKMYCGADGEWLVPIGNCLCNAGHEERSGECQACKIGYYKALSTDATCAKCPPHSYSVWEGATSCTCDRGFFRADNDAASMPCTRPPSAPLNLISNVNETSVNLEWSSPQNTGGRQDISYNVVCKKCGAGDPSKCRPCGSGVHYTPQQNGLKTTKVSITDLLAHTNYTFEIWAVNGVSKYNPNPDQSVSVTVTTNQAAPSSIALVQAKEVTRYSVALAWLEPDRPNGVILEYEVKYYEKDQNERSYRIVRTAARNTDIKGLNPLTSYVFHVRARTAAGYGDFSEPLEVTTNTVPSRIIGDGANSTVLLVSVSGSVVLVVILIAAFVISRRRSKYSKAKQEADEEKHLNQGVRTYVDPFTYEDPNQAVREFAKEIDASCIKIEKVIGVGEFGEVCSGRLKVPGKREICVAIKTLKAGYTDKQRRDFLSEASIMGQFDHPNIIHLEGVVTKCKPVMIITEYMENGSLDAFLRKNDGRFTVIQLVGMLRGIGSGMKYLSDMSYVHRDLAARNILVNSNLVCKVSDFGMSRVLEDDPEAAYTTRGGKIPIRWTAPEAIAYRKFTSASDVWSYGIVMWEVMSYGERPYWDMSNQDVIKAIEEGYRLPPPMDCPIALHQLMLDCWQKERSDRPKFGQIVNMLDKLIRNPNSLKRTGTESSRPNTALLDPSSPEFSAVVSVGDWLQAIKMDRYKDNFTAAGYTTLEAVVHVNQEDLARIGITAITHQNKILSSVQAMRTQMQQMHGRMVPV
Chain of UniProt P30968 (whole entry, looked up): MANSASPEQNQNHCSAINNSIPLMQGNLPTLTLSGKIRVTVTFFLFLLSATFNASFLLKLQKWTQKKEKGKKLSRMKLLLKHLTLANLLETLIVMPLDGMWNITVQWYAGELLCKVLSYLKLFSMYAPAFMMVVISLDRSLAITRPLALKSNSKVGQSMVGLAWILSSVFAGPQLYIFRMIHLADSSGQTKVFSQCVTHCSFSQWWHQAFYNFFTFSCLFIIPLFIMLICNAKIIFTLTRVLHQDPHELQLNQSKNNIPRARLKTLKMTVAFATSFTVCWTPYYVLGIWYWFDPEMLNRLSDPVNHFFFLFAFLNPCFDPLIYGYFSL

| Structure (SMILES) | target | assay | system | conditions | measurement | value |
| --- | --- | --- | --- | --- | --- | --- |
| Cc1cccc2c1N(C(=O)n1ccnn1)CC2 | KAI2 (Arabidopsis thaliana, UniProt Q9SZU7, L218I) | ITC |  | L218I mutant, mean | Kd | 26.3 µM |
| C=CC(=O)N1C[C@H](C)N(c2nc(OC[C@@]34CCCN3C[C@H](F)C4)nc3c(F)c(-c4ccc(F)c5sc(N)c(C#N)c45)c(C(F)(F)F)cc23)C[C@H]1C | GTPase KRas, GppNHp-bound (KRAS, Homo sapiens, UniProt P01116) | SPR |  |  | Kd | 12 µM |
| O=C(Nc1cccc(CNc2ncccn2)c1)c1cc(-c2ccccc2)n(-c2ccccc2)n1 | Genome polyprotein NS2B-NS3 protease | reporter gene | HeLa |  | EC50 | 2.2 µM |
| O=C(N1CCc2cccc(F)c21)n1ccnn1 | KAI2 (Arabidopsis thaliana, UniProt Q9SZU7) | isothermal titration calorimetry |  |  | Kd | 192 µM and 149 µM and 151 µM |
| CCOC(=O)C(CC)(CCCSCCOCCOCCN)NC(=O)c1ccc(C2CC2)c(Cc2ccc(F)cc2)n1 (racemic) | CNR2 | ligand displacement, radioligand |  | cell membranes | Ki | 0.038 µM |
| O=C(Nc1cccc(N2CCOCC2)c1)c1cc(-c2ccccc2)n(-c2ccccc2)n1 | Genome polyprotein NS2B-NS3 protease | reporter gene | HeLa |  | EC50 | 13 µM |
| O=C(O)C(Cc1c[nH]cn1)N1C(=O)c2ccc3c4ccc5c6c(ccc(c7ccc(c2c37)C1=O)c64)C(=O)N(CCN1CCCCC1)C5=O (stereo not drawn) | hTERT promoter G-quadruplex DNA | binding, thiazole orange displacement |  | pH 6 | DC50 | 0.48 ± 0.17 µM |
| CCOC(=O)C(CC)(CCCSCCOCCOCCOCCOCCNc1ccc([N+](=O)[O-])c2nonc12)NC(=O)c1ccc(C2CC2)c(Cc2ccc(F)cc2)n1 (stereo not drawn) | CNR2 | ligand displacement, radioligand |  | cell membranes | Ki | 0.038 µM |
| O=C(Cc1ccc(OCc2ccccc2)cc1)NC1(C(=O)O)CCN(C(=O)c2ccc(-c3cccc(Cl)c3)cc2)CC1 | GNRHR (Homo sapiens, UniProt P30968) | inositol phosphate, agonist |  |  | EC50 | > 10 µM |
| O=C1c2ccc3c4ccc5c6c(ccc(c7ccc(c2c37)C(=O)N1CCN1CCCCC1)c64)C(=O)N(CCN1CCCCC1)C5=O | hTERT promoter G-quadruplex DNA | binding, thiazole orange displacement |  | pH 7 | DC50 | 0.72 ± 0.18 µM |
| O=C(c1cc(-c2ccccc2)n(-c2ccccc2)n1)N1CCC(N2CCCC2)CC1 | Genome polyprotein NS2B-NS3 protease | reporter gene | HeLa |  | EC50 | 22 µM |
| Cc1nn(-c2cccc(N)c2)c(=O)c2cnc(Nc3ccc(N4CCNCC4)cc3)nc12 | EPHA4 (Homo sapiens, UniProt P54764) | enzyme activity, inhibitor |  |  | IC50 | 1.58 µM |
| NC(=O)c1cc(-c2ccc3c(c2)OCCO3)n(-c2ccccc2)n1 | Genome polyprotein NS2B-NS3 protease | reporter gene | HeLa |  | EC50 | 18 µM |
| CC[C@H]1CN(C(c2cccc(C(F)(F)F)c2)c2nc(C(F)(F)F)nn2C)[C@H](CC)CN1c1nc(=O)n(C)c2ccc(C#N)nc12 (stereo partly drawn) | DGKA (Homo sapiens, UniProt P23743) | DGKα-YFP translocation, high-content imaging | Jurkat |  | EC50 | > 3 µM |
| CCOC(=O)[C@@](CC)(CCCSCCOCCOCCNC(=O)OC(C)(C)C)NC(=O)c1ccc(C2CC2)c(Cc2ccc(F)cc2)n1 | CNR2 | cAMP, agonist |  |  | EC50 | 0.023 µM |
| O=C(Nc1cccc(CO)c1)c1cc(-c2ccccc2)n(-c2ccccc2)n1 | Genome polyprotein NS2B-NS3 protease | reporter gene | HeLa |  | EC50 | 9.8 µM |
| O=C(O)C(Cc1c[nH]cn1)N1C(=O)c2ccc3c4ccc5c6c(ccc(c7ccc(c2c37)C1=O)c64)C(=O)N(C(Cc1c[nH]cn1)C(=O)O)C5=O (stereo not drawn) | hTERT promoter G-quadruplex DNA | binding, thiazole orange displacement |  | pH 6 | DC50 | > 2.5 µM |
| CCOC(=O)C(CC)(CCCSCCOCCOCCOCCNc1ccc([N+](=O)[O-])c2nonc12)NC(=O)c1ccc(C2CC2)c(Cc2ccc(F)cc2)n1 (stereo not drawn) | CNR2 | ligand displacement, radioligand |  | cell membranes | Ki | 0.027 µM |
| Cc1ccc(-n2nc(C(N)=O)cc2-c2ccc(CC(C)C)cc2)cc1 | Genome polyprotein NS2B-NS3 protease | reporter gene | HeLa |  | EC50 | 9.9 µM |
| C=CC(=O)N1CC2(CCN(c3nc(OC4CCN(CCCOC)CC4)nc4c(OCC(F)(F)F)c(-c5c(C)ccc6[nH]ncc56)c(C5CC5)cc34)CC2)C1 | GTPase KRas, GDP-bound (KRAS, Homo sapiens, UniProt P01116, G13D) | binding, surface plasmon resonance |  |  | Kd | 0.863 ± 0.15 µM |
| Cc1onc(-c2ccc(F)cc2)c1C(=O)Nc1cccc(C(N)=O)c1 | Genome polyprotein NS2B-NS3 protease | reporter gene | HeLa |  | EC50 | > 50 µM |
| CC(C)(C)n1cc(CN(Cc2cn(CC(=O)O)nn2)Cc2cn(C(C)(C)C)nn2)nn1 | Cu(I) | binding, bicinchoninic acid competition |  | 1000 µM, with: bicinchoninic acid 40 µM | Kd | 0.000104 µM |
| O=C(c1cc(-c2ccccc2)n(-c2ccccc2)n1)N(Cc1ccccn1)CC1CCCO1 (stereo not drawn) | Genome polyprotein NS2B-NS3 protease | reporter gene | HeLa |  | EC50 | 16 µM |
| CC(C)Oc1cc(Cl)ccc1CNc1cc(-c2ccccc2)nc2ncnn12 | GPR3 (Homo sapiens, UniProt P46089, Q215A) | cAMP level, cAMP GloSensor |  |  | EC50 | 0.437 µM |
